Published values pooled from the literature.
“And” joins repeats or separate records; there may be more than shown.
Target: Tyrosine-protein kinase Fer (FER, Homo sapiens, UniProt P16591)

Structure (SMILES)	test	setting	how to read	endpoint	result
CNC1C[S+]2CC[S+]3CC[S+](C1)[Ru-4]321([N]=C=S)[n]2c3ccc(OC)cc3c3c4c(c5cc(F)c[n+]1c5c32)C(=O)NC4=O (stereo not drawn)	KinomeScan	0.1 µM	baseline: untreated	remaining binding	100%
C=CC(=O)Nc1cccc(-c2cnc3[nH]cc(C(=O)NC(C)(C)C)c3n2)c1	kinase activity	0.1 µM		inhibition	14% and 12%
CCN1CCN(Cc2ccc(C(=O)Nc3ccc(C)c(NCc4cnc5[nH]ccc5c4OC)c3)cc2C(F)(F)F)CC1	binding, competition with immobilised ligand	1 µM		remaining binding	43%
C=CC(=O)N1CCc2ccc(-n3c(=O)ccc4cnc5ccc(-c6cnn(C)c6)cc5c43)cc21	KINOMEscan	1 µM	baseline: DMSO control	remaining binding	100%
CNC(=O)C[C@H](Cc1ccc(C#N)cc1)NC(=O)c1cc(-c2ccc(CN[C@H](C)c3ccc(C)cc3)o2)ccc1Cl	enzyme activity, inhibitor	1 µM		activity vs control	98%
O=C(Cc1ccc(OCc2ccccc2)cc1)NC1(C(=O)O)CCN(C(=O)c2ccc(-c3cccc(Cl)c3)cc2)CC1	enzyme activity, inhibitor	10 µM		activity vs control	104%
COc1c(Cl)cccc1Nc1c(-c2ccncc2C#C[C@@]2(C)CCCN2C(=O)/C=C/CN(C)C)[nH]c2c1C(=O)NCC2	binding, competition with immobilised ligand	3 µM		remaining binding	100%
NC(=O)C[C@H]1CCc2sc3ncnc(O[C@H]4CC[C@H](N5CCOCC5)CC4)c3c21	enzyme activity, inhibitor	10 µM		inhibition	8%
COc1cc(Nc2nc(C)cc(-c3cnn4nc(OC)ccc34)n2)cc(C(F)(F)F)c1	inhibitor	1 µM	baseline: control	remaining activity	93%
Cc1ccc(-c2c(/C=C(\C#N)C(=O)NC(C)C)n(CCCO)c3ncnc(N)c23)cc1	cell-free assay, competition with immobilised ligand	1 µM		remaining binding	91%
CCn1cc(C(=O)O)c(=O)c2c(N)c(F)c(NC3CCCCC3)cc21	kinase activity	0.1 µM, added: ATP at Km		inhibition	-11.9%
C=CC(=O)N1CCCC(n2c(=O)c3ncccc3n(Cc3ccc(Oc4ccccc4)cc3)c2=O)C1 (stereo not drawn)	cell-free assay, competition with immobilised ligand	1 µM		remaining binding	97%
COc1ccc(NC(=O)Nc2ccc3c(c2)C(=O)N(C(C)CO)CC(C)C(CN(C)Cc2ccc4c(c2)OCO4)O3)cc1 (stereo not drawn)	kinase activity, KinaseProfiler	0.03 µM, species human	baseline: control	remaining activity	104%
Cc1cccc(O[C@H]2CCC[C@@H](C(C)CNCc3ccncc3)C2)c1 (relative stereo)	cell-free assay, inhibitor	10 µM		inhibition	-6%
C=CC(=O)N1Cc2nc(-c3cc(-c4cc(Cl)cnc4Cl)c(F)cc3F)n(-c3ccncn3)c2C1	cell-free assay, inhibitor	1 µM		inhibition	7.7%
